Published values gathered from unrelated publications.
“And” joins repeats or separate records; there may be more than shown. ± marks the error that the study gave.

For `CC(/C=C/C(=O)NO)=C\[C@@H](C)C(=O)c1ccc(N(C)C)cc1`, the IC50 was 0.22 µM (HDAC class I/II; enzyme activity, inhibitor, HDAC-Glo I/II; HCT-116; 6 h).
With `Cc1c(-c2ccc(O)cc2)nn(-c2ccc(O)cc2)c1-c1ccc(OCCN2CCCCC2)cc1` the IC50 was 10.2 ± 0.2 µM (TLR2 (mouse); TNF-alpha production, inhibitor; RAW264.7; 6 h, together with: Pam3Cys 100 ng/mL).
`CCCOC(=O)c1cc(O)c(O)c(O)c1` has an IC50 of 1040 µM (lysine-containing peptide; peptide depletion, mass spectrometry; 24 h, pH 10.2, room temperature, together with: lysine peptide 0.5 mM).
With `CC[C@H](CC[C@@H](C)[C@H]1CC[C@H]2[C@@H]3CC=C4C[C@@H](O)CC[C@]4(C)[C@H]3CC[C@]12C)C(C)C` the IC50 was > 1300 µM (arginine-methylglyoxal glycation; AGE formation, inhibitor).
The IC50 of `N[C@@H](C(=O)O)[C@H](O)[C@@]1(C(=O)O)CC[C@H](C[C@H](NC(=O)c2cc(Cl)c(O)c(Cl)c2)C(=O)O)N1` is reported as 0.075 ± 0.009 µM (rat cortex NMDA receptor; ion current, antagonist, two-electrode voltage clamp; Xenopus oocytes; pH 7.4, holding potential -80 mV, together with: NMDA 10 µM + glycine 100 µM).
`N=C(N)c1ccc(-c2cc3ccc(C(=N)N)cc3[nH]2)cc1` gave an IC50 of 2.8 µM (ASIC, mouse; ion current, inhibitor, whole-cell voltage clamp; mouse hippocampal neurons, primary; holding -60 mV, together with: pH 5.8).
For `O=c1c(O)c(-c2ccc(O)cc2O)oc2cc(O)cc(O)c12`, the IC50 was 68 µM (class IIa HDAC; enzyme activity; bovine heart lysate).
`CCCCC[C@H](CC(=O)NO)C(=O)N[C@H](C(=O)N1CCC[C@H]1CO)C(C)C` gave an IC50 of 0.86 µM (aminopeptidase, human cell surface; enzyme activity, inhibitor; U-937, cell suspension; together with: Leu-AMC substrate).
With `NC[C@@H]1O[C@H](O[C@H]2[C@@H](O)[C@H](O[C@@H]3[C@@H](O)[C@H](N)C[C@H](N)[C@H]3O[C@H]3O[C@H](CN)[C@@H](O)[C@H](O)[C@H]3N)O[C@@H]2CO)[C@H](N)[C@@H](O)[C@@H]1O` the IC50 was 2.9 ± 0.2 µM (HIV-1 nucleocapsid protein-SL4 RNA complex; complex dissociation, ESI-FTMS; preformed complex ~3.5 µM).
`COc1ccc2c(c1OC)C(=O)O[C@@H]2[C@H]1c2c(c(C)c3c(c2OC)OCO3)CCN1C` gave an IC50 of > 400 µM (tubulin, bovine brain; inhibitor).
The IC50 of `C[C@H](/N=C1\NC(=O)S\C1=C/c1ccc2c(c1)OCO2)C(=O)O` is reported as 10 to 20 µM (class I PI3K; enzyme activity, inhibitor).
With `CCc1ccc(O)c(OC)c1` the IC50 was 0.441 µg/mL (anti-eugenol monoclonal antibody mouse; antibody binding, indirect competitive ELISA; antibody 0.25 µg/mL, together with: coating antigen Eug-222-OVA 0.5 µg/mL).
The IC50 of `O=C(O)c1nn(Cc2ccc(Cl)cc2Cl)c2ccccc12` is reported as 25 µM and ~25 µM (mitochondrial respiration, rat; uncoupled glutamate plus malate oxidation; rat liver mitochondria; 30 °C).
With `O=C(O[C@@H]1Cc2c(O)cc(O)cc2O[C@@H]1c1cc(O)c(O)c(O)c1)c1cc(O)c(O)c(O)c1` the IC50 was 23 µM (class IIb HDAC; enzyme activity; bovine heart lysate).
For `CCOC(=O)c1ccc(N)cc1`, the IC50 was > 10 µg/mL (anti-eugenol monoclonal antibody mouse; antibody binding, indirect competitive ELISA; antibody 0.25 µg/mL, together with: coating antigen Eug-222-OVA 0.5 µg/mL).
With `O=C(O)/C=C/c1ccc(O)c(O)c1` the IC50 was 110 µM (class IIa HDAC; enzyme activity; bovine heart lysate).
With `C=C1C(=O)O[C@H]2[C@H]1CC/C(C)=C/CC[C@@]1(C)O[C@@H]21` the IC50 was 1.7 µM (NF-κB; reporter gene, inhibitor; HEK293 NF-κB-luc; 4 h, together with: TNFα 2 ng/mL).
For `O=c1cc(-c2ccc(O)c(O)c2)oc2cc(O)cc(O)c12`, the IC50 was 18 µM (class IIb HDAC; enzyme activity; bovine heart lysate).
`Fc1ccc2[nH]ccc2c1-c1nc(N2CCOCC2)c2sc(CN3CCN(CC4CC4)CC3)cc2n1` gave an IC50 of 0.036 µM (Akt Ser473 phosphorylation; inhibitor, item: phospho-Akt Ser473; Ri-1 human B cell lymphoma cells; together with: anti-IgM).
The IC50 of `C[C@H]1CC[C@H](n2c3cnccc3c3cnc(Nc4ccc5c(n4)CCN(C(=O)CO)C5)nc32)CC1` is reported as 0.028 µM (FLT3-ITD; inhibitor; MOLM-13, mouse, subcutaneous MOLM-13 xenograft, plasma, free concentration).
The IC50 of `Cc1ccc(C(=O)NNC(=O)c2c(C)cccc2Cl)cc1C#Cc1cnc2ccccc2c1` is reported as 0.167 µM (BCR-ABL1; cell proliferation; BCR-ABL1-positive cells).
`COc1ccccc1O` gave an IC50 of > 10 µg/mL (anti-eugenol monoclonal antibody mouse; antibody binding, indirect competitive ELISA; antibody 0.25 µg/mL, together with: coating antigen Eug-222-OVA 0.5 µg/mL).
With `O=C1OC(=O)c2ccccc21` the IC50 was 3840 µM (lysine-containing peptide; peptide depletion, mass spectrometry; 24 h, pH 10.2, room temperature, together with: lysine peptide 0.5 mM).
The IC50 of `CC(C)C[C@H](NC(=O)[C@@H](O)[C@H](N)Cc1ccccc1)C(=O)O` is reported as 6.27 µM (aminopeptidase, human cell surface; enzyme activity, inhibitor; U-937, cell suspension; together with: Leu-AMC substrate).
The IC50 of `O=C(O)[C@H]1O[C@@H](Oc2cc3oc(-c4ccccc4)cc(=O)c3c(O)c2O)[C@H](O)[C@@H](O)[C@@H]1O` is reported as 84 µM (class IIb HDAC; enzyme activity; bovine heart lysate).
For `Oc1ccccc1O`, the IC50 was > 10 µg/mL (anti-eugenol monoclonal antibody mouse; antibody binding, indirect competitive ELISA; antibody 0.25 µg/mL, together with: coating antigen Eug-222-OVA 0.5 µg/mL).
`O=c1c(O)c(-c2ccc(O)c(O)c2)oc2cc(O)cc(O)c12` has an IC50 of 36 µM (class IIa HDAC; enzyme activity; bovine heart lysate).
With `C=CCc1ccc(O)c(OC)c1` the IC50 was 0.0382 µg/mL (anti-eugenol monoclonal antibody mouse; antibody binding, indirect competitive ELISA; antibody 0.25 µg/mL, together with: coating antigen Eug-222-OVA 0.5 µg/mL).
With `O=c1c(O)c(-c2ccc(O)cc2)oc2cc(O)cc(O)c12` the IC50 was 29 µM (class IIb HDAC; enzyme activity; bovine heart lysate).
With `CCOC(=O)c1cccc(N)c1.CS(=O)(=O)O` the IC50 was > 10 µg/mL (anti-eugenol monoclonal antibody mouse; antibody binding, indirect competitive ELISA; antibody 0.25 µg/mL, together with: coating antigen Eug-222-OVA 0.5 µg/mL).
For `C/N=C1\NC(=O)S\C1=C/c1ccc2c(c1)OCO2`, the IC50 was > 90 µM (class I PI3K; enzyme activity, inhibitor).
With `O=c1c(O)c(-c2cc(O)c(O)c(O)c2)oc2cc(O)cc(O)c12` the IC50 was 11 µM (class IIa HDAC; enzyme activity; bovine heart lysate).

Excerpt of the above:
The IC50 of `C[C@H](/N=C1\NC(=O)S\C1=C/c1ccc2c(c1)OCO2)C(=O)O` is reported as 10 to 20 µM (class I PI3K; enzyme activity, inhibitor).
`CCCOC(=O)c1cc(O)c(O)c(O)c1` has an IC50 of 1040 µM (lysine-containing peptide; peptide depletion, mass spectrometry; 24 h, pH 10.2, room temperature, together with: lysine peptide 0.5 mM).
